Published values from different studies.
Every numbered part comes from another study and shows a few of its results, in no order. Several values in a cell are separate wells, animals, samples, runs or records.
UniProt Q13976, sequence (whole entry, looked up): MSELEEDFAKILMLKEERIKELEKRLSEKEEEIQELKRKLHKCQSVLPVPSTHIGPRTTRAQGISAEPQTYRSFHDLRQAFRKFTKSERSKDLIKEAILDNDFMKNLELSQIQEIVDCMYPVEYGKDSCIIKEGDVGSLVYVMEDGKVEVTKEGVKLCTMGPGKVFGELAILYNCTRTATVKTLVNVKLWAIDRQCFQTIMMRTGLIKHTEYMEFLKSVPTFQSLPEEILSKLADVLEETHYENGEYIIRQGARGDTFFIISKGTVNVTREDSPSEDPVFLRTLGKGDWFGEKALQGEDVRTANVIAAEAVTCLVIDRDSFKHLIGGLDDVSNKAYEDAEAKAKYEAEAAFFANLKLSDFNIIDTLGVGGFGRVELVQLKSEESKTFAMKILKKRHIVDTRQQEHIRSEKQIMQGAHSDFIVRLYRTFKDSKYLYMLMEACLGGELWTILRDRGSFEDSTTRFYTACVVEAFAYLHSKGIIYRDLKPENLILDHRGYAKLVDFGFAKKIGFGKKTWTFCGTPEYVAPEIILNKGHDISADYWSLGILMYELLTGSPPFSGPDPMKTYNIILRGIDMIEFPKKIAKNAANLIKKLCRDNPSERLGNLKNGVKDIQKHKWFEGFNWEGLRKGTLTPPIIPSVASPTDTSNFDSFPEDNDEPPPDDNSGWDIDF
UniProt O96017, sequence (whole entry, looked up): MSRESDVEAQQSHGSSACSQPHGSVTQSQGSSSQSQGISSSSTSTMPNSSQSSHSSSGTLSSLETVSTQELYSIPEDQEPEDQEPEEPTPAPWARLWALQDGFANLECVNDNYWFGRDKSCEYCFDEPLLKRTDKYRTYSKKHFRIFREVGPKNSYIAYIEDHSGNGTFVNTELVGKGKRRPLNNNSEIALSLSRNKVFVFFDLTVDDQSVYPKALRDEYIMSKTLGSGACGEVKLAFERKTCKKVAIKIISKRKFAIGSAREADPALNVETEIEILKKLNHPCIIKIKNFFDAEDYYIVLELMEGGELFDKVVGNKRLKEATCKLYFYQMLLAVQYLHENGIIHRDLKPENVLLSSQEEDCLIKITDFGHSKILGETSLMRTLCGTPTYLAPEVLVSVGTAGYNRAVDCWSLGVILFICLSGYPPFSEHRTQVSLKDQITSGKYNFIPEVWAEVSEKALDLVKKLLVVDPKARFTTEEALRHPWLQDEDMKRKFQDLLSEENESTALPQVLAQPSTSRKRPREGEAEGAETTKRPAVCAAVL
UniProt P48736, sequence (whole entry, looked up): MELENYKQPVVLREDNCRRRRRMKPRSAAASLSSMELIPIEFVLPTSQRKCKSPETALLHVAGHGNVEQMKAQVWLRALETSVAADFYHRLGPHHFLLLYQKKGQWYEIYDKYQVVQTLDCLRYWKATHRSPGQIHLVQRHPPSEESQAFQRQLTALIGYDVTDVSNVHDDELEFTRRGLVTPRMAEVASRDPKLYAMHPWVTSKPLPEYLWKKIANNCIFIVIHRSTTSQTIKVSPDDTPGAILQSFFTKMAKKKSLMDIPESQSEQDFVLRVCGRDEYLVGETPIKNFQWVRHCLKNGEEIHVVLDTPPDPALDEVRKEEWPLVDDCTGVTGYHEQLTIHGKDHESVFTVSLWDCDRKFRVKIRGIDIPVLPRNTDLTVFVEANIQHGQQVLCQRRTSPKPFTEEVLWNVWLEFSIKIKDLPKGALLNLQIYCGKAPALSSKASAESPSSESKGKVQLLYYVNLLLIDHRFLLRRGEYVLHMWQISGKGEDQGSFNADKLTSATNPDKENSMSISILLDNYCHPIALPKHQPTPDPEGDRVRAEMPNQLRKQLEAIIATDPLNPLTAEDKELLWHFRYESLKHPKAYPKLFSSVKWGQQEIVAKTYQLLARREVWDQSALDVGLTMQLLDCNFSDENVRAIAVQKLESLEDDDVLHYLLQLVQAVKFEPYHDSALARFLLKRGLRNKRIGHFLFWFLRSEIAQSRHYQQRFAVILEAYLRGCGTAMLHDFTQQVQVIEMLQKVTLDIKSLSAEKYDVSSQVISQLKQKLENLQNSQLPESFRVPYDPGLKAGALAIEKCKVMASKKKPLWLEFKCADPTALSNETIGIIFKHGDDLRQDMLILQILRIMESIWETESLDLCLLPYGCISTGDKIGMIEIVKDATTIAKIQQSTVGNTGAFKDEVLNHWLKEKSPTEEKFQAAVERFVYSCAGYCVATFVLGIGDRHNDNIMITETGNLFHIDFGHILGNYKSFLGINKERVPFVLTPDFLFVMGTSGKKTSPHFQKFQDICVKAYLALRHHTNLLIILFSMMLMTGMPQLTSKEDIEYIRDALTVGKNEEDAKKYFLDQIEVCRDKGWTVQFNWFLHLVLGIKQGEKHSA
UniProt Q9Y2K2, sequence (whole entry, looked up): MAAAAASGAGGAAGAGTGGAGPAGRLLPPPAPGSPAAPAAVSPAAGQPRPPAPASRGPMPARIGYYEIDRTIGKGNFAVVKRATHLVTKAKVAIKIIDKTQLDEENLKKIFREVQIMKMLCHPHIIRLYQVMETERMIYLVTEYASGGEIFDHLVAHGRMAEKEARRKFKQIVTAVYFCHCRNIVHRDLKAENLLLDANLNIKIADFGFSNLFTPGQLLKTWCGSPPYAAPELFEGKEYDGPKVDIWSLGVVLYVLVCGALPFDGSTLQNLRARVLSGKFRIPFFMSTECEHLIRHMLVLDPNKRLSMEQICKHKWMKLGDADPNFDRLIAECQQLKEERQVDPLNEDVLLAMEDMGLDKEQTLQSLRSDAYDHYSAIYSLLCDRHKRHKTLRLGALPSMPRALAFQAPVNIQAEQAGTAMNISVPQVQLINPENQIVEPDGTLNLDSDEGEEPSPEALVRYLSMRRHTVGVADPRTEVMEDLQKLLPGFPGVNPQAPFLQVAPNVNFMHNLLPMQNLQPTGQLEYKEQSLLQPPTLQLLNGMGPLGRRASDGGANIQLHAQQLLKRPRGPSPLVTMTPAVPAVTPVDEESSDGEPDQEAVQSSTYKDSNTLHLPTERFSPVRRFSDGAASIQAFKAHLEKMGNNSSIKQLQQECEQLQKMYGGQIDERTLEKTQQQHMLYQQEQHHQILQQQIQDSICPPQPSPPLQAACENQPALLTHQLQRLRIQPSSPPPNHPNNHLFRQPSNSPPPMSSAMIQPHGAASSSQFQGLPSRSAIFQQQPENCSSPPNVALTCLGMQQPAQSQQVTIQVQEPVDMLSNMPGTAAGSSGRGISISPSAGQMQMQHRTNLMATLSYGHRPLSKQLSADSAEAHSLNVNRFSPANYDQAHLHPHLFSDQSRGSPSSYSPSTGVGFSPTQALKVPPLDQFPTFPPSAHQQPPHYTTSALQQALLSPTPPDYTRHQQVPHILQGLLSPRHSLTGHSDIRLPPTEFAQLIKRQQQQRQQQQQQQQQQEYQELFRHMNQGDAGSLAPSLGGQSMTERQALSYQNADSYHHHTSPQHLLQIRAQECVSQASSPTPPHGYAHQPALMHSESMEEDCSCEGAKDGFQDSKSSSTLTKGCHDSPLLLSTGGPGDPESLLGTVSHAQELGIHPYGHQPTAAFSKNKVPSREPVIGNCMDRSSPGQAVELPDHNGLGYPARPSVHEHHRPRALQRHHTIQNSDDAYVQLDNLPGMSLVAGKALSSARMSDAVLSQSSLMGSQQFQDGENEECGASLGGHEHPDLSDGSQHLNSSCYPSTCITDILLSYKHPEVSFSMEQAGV
UniProt P57058, sequence (whole entry, looked up): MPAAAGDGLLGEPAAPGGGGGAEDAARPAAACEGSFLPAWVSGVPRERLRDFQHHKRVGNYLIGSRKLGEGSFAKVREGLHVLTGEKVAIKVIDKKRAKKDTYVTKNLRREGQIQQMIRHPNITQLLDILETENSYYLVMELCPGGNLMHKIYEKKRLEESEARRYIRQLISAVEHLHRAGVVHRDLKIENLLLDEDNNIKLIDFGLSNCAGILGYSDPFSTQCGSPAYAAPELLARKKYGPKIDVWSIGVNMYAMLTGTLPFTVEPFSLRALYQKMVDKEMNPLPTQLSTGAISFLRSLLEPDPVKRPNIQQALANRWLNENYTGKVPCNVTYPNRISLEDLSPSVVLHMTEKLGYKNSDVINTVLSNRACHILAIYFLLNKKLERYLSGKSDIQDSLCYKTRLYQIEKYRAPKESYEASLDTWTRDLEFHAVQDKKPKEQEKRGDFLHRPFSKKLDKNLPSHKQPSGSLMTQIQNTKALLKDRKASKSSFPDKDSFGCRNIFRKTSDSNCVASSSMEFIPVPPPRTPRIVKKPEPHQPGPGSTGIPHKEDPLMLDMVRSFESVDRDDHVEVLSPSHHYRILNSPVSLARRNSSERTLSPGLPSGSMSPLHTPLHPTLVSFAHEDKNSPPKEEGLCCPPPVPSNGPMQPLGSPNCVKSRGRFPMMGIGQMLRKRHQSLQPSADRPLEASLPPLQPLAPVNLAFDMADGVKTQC
UniProt Q96NX5, sequence (whole entry, looked up): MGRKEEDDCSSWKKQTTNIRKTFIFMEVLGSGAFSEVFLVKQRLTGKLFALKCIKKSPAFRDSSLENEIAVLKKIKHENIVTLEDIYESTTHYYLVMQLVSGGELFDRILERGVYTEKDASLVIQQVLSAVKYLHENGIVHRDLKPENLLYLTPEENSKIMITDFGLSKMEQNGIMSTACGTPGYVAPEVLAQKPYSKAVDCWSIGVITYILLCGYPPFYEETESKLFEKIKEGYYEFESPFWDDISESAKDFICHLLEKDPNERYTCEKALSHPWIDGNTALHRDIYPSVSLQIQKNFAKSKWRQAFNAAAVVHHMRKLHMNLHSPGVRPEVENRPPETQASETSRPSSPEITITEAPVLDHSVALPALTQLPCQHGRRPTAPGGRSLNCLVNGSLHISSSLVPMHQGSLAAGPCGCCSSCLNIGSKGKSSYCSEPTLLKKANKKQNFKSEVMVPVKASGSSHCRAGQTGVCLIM

Series 1 — organism: Sarcocystis neurona; observed: parasite activity; concentration: concentration not given; endpoint: activity class
CC(O)CO.N[C@@H](C(=O)N[C@@H]1C(=O)N2C(C(=O)O)=C(CSc3cn[nH]n3)CS[C@H]12)c1ccc(O)cc1: inactive
Cl.Nc1nc2ccc(OC(F)(F)F)cc2s1: inactive
CC(C)(C)NCC(O)c1ccc(O)c(CO)c1.CC(C)(C)NCC(O)c1ccc(O)c(CO)c1.O=S(=O)(O)O (centres unmarked): inactive
COc1ccc(CC(C)NCC(O)c2ccc(O)c(NC=O)c2)cc1.COc1ccc(CC(C)NCC(O)c2ccc(O)c(NC=O)c2)cc1.O.O.O=C(O)/C=C/C(=O)O (centres unmarked): inactive
Cl.NC1CCN(c2cccc(Cl)n2)CC1: inactive
C[C@H]1C[C@H]2[C@@H]3CCC4=CC(=O)C=C[C@]4(C)[C@@]3(Cl)[C@@H](O)C[C@]2(C)[C@@]1(O)C(=O)CO: inactive
CN(C)CCOc1ccc(/C(=C(/CCCl)c2ccccc2)c2ccccc2)cc1.O=C(O)CC(O)(CC(=O)O)C(=O)O: inactive

Series 2 — cell line: HaCaT; concentration: 100 µM; time: 36 h; endpoint: viability
C=CCc1ccc(O)c(-c2cc(CC=C)ccc2O)c1: 4.81%
O=C(O)/C=C/c1ccc(Cn2ccnc2)cc1: 105%
Nc1ccc(C(=O)O)c(O)c1: 82.5%
COc1cc2c(Oc3ccc4[nH]c(C)cc4c3F)ncnc2cc1OCCCN1CCCC1: 6.65%
CCOC(=O)C1=C(C)NC(C)=C(C(=O)OC)C1c1cccc(Cl)c1Cl (centres unmarked): 5.42%
O=C1O[C@H]([C@@H](O)CO)C(O)=C1O: 90.8%
COc1cc(OC)c(C(=O)CCCN2CCCC2)c(OC)c1: 98.2%
COc1cc(S(=O)(=O)O)ccc1O: 94.1%

Series 3 — observed: cell-free assay; method: competition with immobilised ligand; concentration: 1 µM; endpoint: remaining binding
SMILES: CC(=O)c1c(NS(C)(=O)=O)c2cc(-c3ccc(Cl)cc3)c(-c3ccc(Cl)cc3Cl)nc2n(C)c1=O
STK33 (Homo sapiens, UniProt Q9BYT3): 100%
SIK3 (Homo sapiens, UniProt Q9Y2K2): 100%
PIP4K2C (Homo sapiens, UniProt Q8TBX8): 100%
PRKD2 (Homo sapiens, UniProt Q9BZL6): 88%
PIK3CG (Homo sapiens, UniProt P48736): 82%
MAPK13 (Homo sapiens, UniProt O15264): 97%
Myosin-IIIa (MYO3A, Homo sapiens, UniProt Q8NEV4): 88%
HUNK (Homo sapiens, UniProt P57058): 100%
EIF2AK1 (Homo sapiens, UniProt Q9BQI3): 83%
CAMK1G (Homo sapiens, UniProt Q96NX5): 100%
RIOK2 (Homo sapiens, UniProt Q9BVS4): 100%
TIE1 (Homo sapiens, UniProt P35590): 100%
TBK1 (Homo sapiens, UniProt Q9UHD2): 92%
CLK3 (Homo sapiens, UniProt P49761): 92%
MAK (Homo sapiens, UniProt P20794): 93%
NUAK2 (Homo sapiens, UniProt Q9H093): 89%
PIM3 (Homo sapiens, UniProt Q86V86): 100%
MAST1 (Homo sapiens, UniProt Q9Y2H9): 100%
MAP3K10 (Homo sapiens, UniProt Q02779): 99%
MAP3K13 (Homo sapiens, UniProt O43283): 71%
CDKL2 (Homo sapiens, UniProt Q92772): 99%
PRKCI (Homo sapiens, UniProt P41743): 100%
Ribosomal protein S6 kinase alpha-5, N-terminal kinase domain (RPS6KA5, Homo sapiens, UniProt O75582): 100%
PIM2 (Homo sapiens, UniProt Q9P1W9): 100%
TLK2 (Homo sapiens, UniProt Q86UE8): 99%

Series 4 — observed: enzyme activity; action: inhibitor; concentration: 0.5 µM; relative to: control; endpoint: remaining activity
Compound: CC(C)(C)n1nc(Cc2cccc3ccccc23)c2c(N)ncnc21
Cyclin-dependent kinase 5, with p25 (CDK5, Homo sapiens, UniProt Q00535): 109%
CHEK2 (Homo sapiens, UniProt O96017): 92%
IKBKE (Homo sapiens, UniProt Q14164): 98.3%
CAMK2D (Homo sapiens, UniProt Q13557): 94.1%
cGMP-dependent protein kinase 1, isoform beta (PRKG1, Homo sapiens, UniProt Q13976): 110%

Mixed results
Ic1ccc(Nc2nc(NCCN3CCOCC3)nc(N3CCOCC3)n2)cc1  enzyme activity (L444P/L444P Gaucher fibroblasts; 4-MUG hydrolysis in lysate; 0.1 µM, 72 h; relative to: vehicle): 103% and 106% and 101% and 110% and 98.2% and 109% and 91.2%
C[C@@H]1[C@H](O)[C@@H](C)/C=C/C=C/C=C/C=C/C=C/C=C/C=C/[C@H](O[C@@H]2O[C@H](C)[C@@H](O)[C@H](N)[C@@H]2O)C[C@@H]2O[C@](O)(C[C@@H](O)C[C@@H](O)[C@H](O)CC[C@@H](O)C[C@@H](O)CC(=O)O[C@H]1C)C[C@H](O)[C@H]2C(=O)O  inhibition (THP-1; 4 µM, cytotoxicity): 98%
O=C(COc1ccc(Cl)cc1)NC1CCC(NC(=O)COc2ccc(Cl)cc2)CC1 (centres unmarked)  enzyme activity (alpha-galactosidase (human); healthy dermal fibroblasts; concentration not given; relative to: DMSO): 125% and 133% and 109% and 115% and 122%
Cc1cccc(/C=N/Nc2cc(N3CCOCC3)nc(OCCc3ccccn3)n2)c1  enzyme activity (L444P/L444P Gaucher fibroblasts; 4-MUG hydrolysis in lysate; 50 nM, 72 h; relative to: vehicle): 174% and 169% and 144% and 167% and 173% and 186%
c1ccc2c(-c3nn4c(-c5ccncc5)nnc4s3)c[nH]c2c1  enzyme activity (L444P/L444P Gaucher fibroblasts; 4-MUG hydrolysis in lysate; 0.1 µM, 72 h; relative to: vehicle): 160% and 112% and 146% and 143% and 131% and 133% and 150%

Repeated from above (series 3):
PIM3 (Homo sapiens, UniProt Q86V86): 100%
RIOK2 (Homo sapiens, UniProt Q9BVS4): 100%
HUNK (Homo sapiens, UniProt P57058): 100%
Ribosomal protein S6 kinase alpha-5, N-terminal kinase domain (RPS6KA5, Homo sapiens, UniProt O75582): 100%
